Assay results gathered from unrelated publications.
Compare with care: the assays were run in different laboratories. Values joined by “and” are separate records of one study, mostly repeats; a detail may differ. Numbers after ± are the reported error.

SMILES = CC(C)(O)c1ncc([S@](N)(=O)=NC(=O)Nc2c3c(cc4c2CCC4)CCC3)s1; test = measured: blood, lymphatic system disorders; test system = healthy human; conditions = oral, dose not given, all active doses pooled; endpoint = subjects with TEAEs; result = 4%
SMILES = Cc1nc(N)nc2c1C(=O)N[C@@H](c1ccc(F)cc1-c1cccc(O[11CH3])n1)C2; test = ex vivo biodistribution; test system = mice, MDA-MB-231 subcutaneous xenograft, lungs; conditions = 60 min post-injection, baseline, vehicle pre-treatment; endpoint = tracer uptake; result = 2.1 ± 0.3 %ID
SMILES = CCCCN1C(=O)c2cccc3c(NCCCCN4CCOCC4)ccc(c23)C1=O; test system = DMSO; endpoint = absorption maximum; result = 445 nm
SMILES = O=C(O)/C=C\c1cc2ccoc2cc1O[C@@H]1O[C@H](CO)[C@@H](O)[C@H](O)[C@H]1O; test = post-procedure stability; test system = rat plasma; conditions = 1000 ng/mL, 1 h, room temperature; endpoint = accuracy; result = 84.7%
SMILES = CN1CCC[C@]1(C)/C=C/S(=O)(=O)NC(=O)Nc1c2c(cc3c1CCC3)CC=C2; test system = human, plasma; conditions = oral, 50 mg twice daily of parent drug, metabolite of dosed drug; how to read = baseline: day 14 over day 1; endpoint = AUC(0-tau) accumulation ratio; result = 1.9
SMILES = O=C(Nc1cnccc1-c1ccc([18F])cc1)c1ccnc(NC(=O)C2CC2)c1; test = PET imaging; test system = FVB/NJ mice, both sexes, brain; conditions = intravenous, 120 min post-injection; endpoint = median SUV; result = 0.1
SMILES = CCC1CNC(CC)CN(C(C(=O)[O-])c2ccc(C(=O)[O-])cc2)C(CC)CN(CC(=O)[O-])C(CC)CN1.[Mn+2] (stereo not drawn); test = ICP-MS; test system = BALB/c mouse, kidney; conditions = intravenous, 0.05 mmol/kg, 5 min, without anaesthesia; endpoint = Mn content; result = 9.61 ± 2.48 µg/g
SMILES = CCCCN1C(=O)c2cccc3c(NCCCN4CCOCC4)ccc(c23)C1=O; test system = DMSO; endpoint = fluorescence lifetime; result = 10.1 ns
SMILES = CC[C@H](C)[C@H](NC(=O)[C@H](CCCCN)NC(C)=O)C(=O)N[C@@H](C)C(=O)N[C@@H](C)C(=O)N[C@@H](CC(C)C)C(=O)N[C@@H](CCCCN)C(=O)N[C@@H](CCC(=O)O)C(=O)N[C@@H](CCCCN)C(=O)N[C@H](C(=O)N[C@@H](C)C(=O)N[C@@H](C)C(=O)N[C@@H](CC(C)C)C(=O)N[C@@H](CCCCN)C(=O)N[C@@H](CCC(=O)O)C(=O)N[C@@H](CCCCN)C(=O)N[C@H](C(=O)N[C@H]1CSCc2ccccc2CSC[C@@H](C(=O)NCC(=O)N[C@@H](Cc2c[nH]c3ccccc23)C(N)=O)NC(=O)[C@H](CCCCN)NC(=O)[C@H](CC(C)C)NC(=O)[C@H](C)NC1=O)[C@@H](C)CC)[C@@H](C)CC; test = circular dichroism thermal melting; test system = PBS; conditions = pH 7.4, single peptide 50 µM total; endpoint = melting temperature; result = 39 °C
SMILES = CN1CCC[C@]1(C)/C=C/S(=O)(=O)NC(=O)Nc1c2c(cc3c1CCC3O)CCC2 (stereo partly drawn); test system = human, plasma; conditions = oral, 12.5 mg twice daily of parent drug, day 1, metabolite of dosed drug; endpoint = AUC(0-tau); result = 63400 ng·h/mL
SMILES = CN(O)C(=O)CCC(=O)NCCCN(CCCCN(CCCNC(=O)CCC(=O)N(C)O)C(=O)CCC(=O)N(C)O)C(=O)CCC(=O)N(C)O.[89Zr]; test = radio-TLC; test system = aqueous buffer; conditions = 7 d, pH 7, 37 °C, 89Zr-labelled complex, together with: DTPA 100-fold excess; endpoint = intact complex; result = 97.8 ± 1.1%
SMILES = O=C(O)CCCOc1ccc([18F])cc1-c1cc(-c2ccccc2C(F)(F)F)n(-c2ccccc2)n1; test = OLINDA/EXM from mouse data; test system = human adults, lungs; endpoint = absorbed dose; result = 9.23 µGy/MBq
SMILES = COc1cccc(OC)c1-c1cc(C(=O)NC2(C(=O)O)C3CC4CC(C3)CC2C4)nn1-c1ccc(C(=O)N(C)CCCN(C)C(=O)[C@H](CCCCNC(=O)[C@H](CC(C)C)NC(=O)C2OC2C(=O)O)NC(=O)CN2CCN(CC(=O)[O-])CCN(CC(=O)[O-])CCN(CC(=O)[O-])CC2)cc1C(C)C.[177Lu+3] (mixture of isomers); test system = mouse, HT-29 xenograft, muscle; conditions = 4 h post injection; endpoint = tissue uptake; result = 0.39 %ID/g
SMILES = C/C(N)=N/C(=N\S(=O)(=O)c1ccc(C(F)(F)F)cc1)N1C[C@H](c2ccccc2)C(c2ccc(Cl)cc2)=N1; test system = beagle dog, plasma; conditions = oral, 24 mg/kg; endpoint = half-life; result = 642 min
SMILES = C=C(NC(=O)c1csc(-c2nc3c(cc2O)-c2nc(cs2)C(=O)NC(C(C)O)C(=O)NC(=C(C)OC)c2nc(cs2)C(=O)NC2c4nc(cs4)C(=O)NC(COC(=O)c4c5c6c(cccc6n4O)COC(=O)C(OC4CC(C)(O)C(N(C)C)C(C)O4)C2OC5)c2nc-3cs2)n1)C(N)=O (stereo not drawn); test system = cynomolgus monkey, male, plasma; conditions = intravenous infusion, 3 mg/kg single dose; endpoint = MRT(0-last); result = 96.6 min
SMILES = O=C(CN1CCN(CC(=O)NCc2ncccc2O)CCN(CC(=O)NCc2ncccc2O)CCN(CC(=O)NCc2ncccc2O)CC1)NCc1ncccc1O.[177Lu+3]; test system = Sprague-Dawley rat, small intestine; conditions = intravenous, dose not given, 2 h; endpoint = biodistribution; result = 0.228 ± 0.058 % injected dose/g
SMILES = Cc1nc(N)nc2c1C(=O)N[C@@H](c1ccc(F)cc1-c1cccc(OCC[18F])n1)C2; test = ex vivo biodistribution; test system = C57BL/6 mice, pancreas; conditions = intravenous, 1 MBq, 30 min; endpoint = SUV; result = 1.75 ± 0.13
SMILES = [2H]C1([2H])CC[C@@H](C[C@@H](C#N)NC(=O)[C@@H]2[C@@H]3[C@H](CN2C(=O)[C@@H](NC(=O)C(F)F)C(C)(C)C)C3(C)C)C(=O)N1; test system = human liver microsomes; conditions = microsomes 0.5 mg/mL; endpoint = intrinsic clearance; result = 17 µL/min/mg
SMILES = CCCCN1C(=O)c2cccc3c(NCCCCCN4CCOCC4)ccc(c23)C1=O; test system = methanol; endpoint = absorption maximum; result = 443 nm
SMILES = Cc1cc(F)ccc1-c1cc(N2C[C@H]3COC(O)CN3C[C@H]2CO)ncc1N(C)C(=O)C(C)(C)c1cc(C(F)(F)F)cc(C(F)(F)F)c1 (stereo partly drawn); test system = human, plasma; conditions = oral, 120 mg, geometric mean; endpoint = AUC extrapolated; result = 2.55%
SMILES = Cc1cc(Cl)cc(S(C)=NC#N)c1NC(=O)c1cc(Br)nn1-c1ncccc1Cl (stereo not drawn); test = potentiometric; endpoint = pKa; result = 8.44
SMILES = CC(C)[C@H](NC(=O)[C@H](Cc1c[nH]c2ccccc12)NC(=O)[C@H](CCCNC(=N)N)NC(=O)[C@H](CCCNC(=N)N)NC(=O)[C@@H](NC(=O)[C@@H](NC(=O)[C@H](CCCNC(=N)N)NC(=O)[C@@H](NC(=O)[C@@H](NC(=O)[C@H](CCCNC(=N)N)NC(=O)[C@H](CCCNC(=N)N)NC(=O)[C@@H](NC(=O)[C@H](Cc1c[nH]c2ccccc12)NC(=O)[C@H](CCCNC(=N)N)NC(=O)[C@H](CCCNC(=N)N)NC(=O)[C@@H](NC(=O)[C@H](CCCNC(=N)N)NC(=O)[C@H](CCCNC(=N)N)NC(=O)[C@@H](NC(=O)[C@H](Cc1c[nH]c2ccccc12)NC(=O)[C@H](CCCNC(=N)N)NC(=O)[C@@H](N)CCCNC(=N)N)C(C)C)C(C)C)C(C)C)C(C)C)C(C)C)C(C)C)C(C)C)C(=O)N[C@@H](CCCNC(=N)N)C(=O)N[C@@H](CCCNC(=N)N)C(=O)O; test = dipstick; test system = CD-1 mice; conditions = intravenous, 15 mg/kg, 6-24 h; endpoint = urinary protein; result = 30 mg/dL
SMILES = CCCCN1C(=O)c2cccc3c(NCCCCCCCCN4CCOCC4)ccc(c23)C1=O; test system = acetonitrile; endpoint = absorption maximum; result = 432 nm
SMILES = [123I]c1ccc2nc(-c3ccc(-n4ccnn4)nc3)cn2c1; test system = male Wistar rat, bone; conditions = intravenous, 4 MBq, 1 h; endpoint = tracer uptake; result = 0.065 %ID/g
SMILES = C=C[C@]1(C)C[C@@H](OC(=O)CSc2ccc(NC(=O)c3ccco3)cc2)[C@]2(C)[C@H](C)CC[C@]3(CCC(=O)[C@H]32)[C@@H](C)[C@@H]1O; test system = M. gallisepticum-infected chickens, plasma; conditions = intramuscular, 5 mg/kg single dose; endpoint = absorption half-life; result = 5.34 min and 5.4 min
SMILES = CCCC[C@H](OC(C)=O)c1ccccc1C(=O)O; test system = beagle dogs, both sexes, whole blood; conditions = intravenous, 1.5 mg/kg single dose; endpoint = AUC(0-t); result = 1130 ± 181 ng·h/mL
SMILES = O=C(Nc1cnccc1-c1ccc([18F])nc1)c1ccnc(NC(=O)C2CC2)c1; test = PET imaging; test system = FVB/NJ mice, both sexes, brain; conditions = intravenous, 60 min post-injection; endpoint = median SUV; result = 0.048

Excerpt of the above:
SMILES = [2H]C1([2H])CC[C@@H](C[C@@H](C#N)NC(=O)[C@@H]2[C@@H]3[C@H](CN2C(=O)[C@@H](NC(=O)C(F)F)C(C)(C)C)C3(C)C)C(=O)N1; test system = human liver microsomes; conditions = microsomes 0.5 mg/mL; endpoint = intrinsic clearance; result = 17 µL/min/mg
SMILES = O=C(CN1CCN(CC(=O)NCc2ncccc2O)CCN(CC(=O)NCc2ncccc2O)CCN(CC(=O)NCc2ncccc2O)CC1)NCc1ncccc1O.[177Lu+3]; test system = Sprague-Dawley rat, small intestine; conditions = intravenous, dose not given, 2 h; endpoint = biodistribution; result = 0.228 ± 0.058 % injected dose/g
SMILES = C=C(NC(=O)c1csc(-c2nc3c(cc2O)-c2nc(cs2)C(=O)NC(C(C)O)C(=O)NC(=C(C)OC)c2nc(cs2)C(=O)NC2c4nc(cs4)C(=O)NC(COC(=O)c4c5c6c(cccc6n4O)COC(=O)C(OC4CC(C)(O)C(N(C)C)C(C)O4)C2OC5)c2nc-3cs2)n1)C(N)=O (stereo not drawn); test system = cynomolgus monkey, male, plasma; conditions = intravenous infusion, 3 mg/kg single dose; endpoint = MRT(0-last); result = 96.6 min
